Published values of several laboratories.
Compare with care: the assays were run in different laboratories.
Effect on: cell growth or viability

SMILES	cell line	method	tested at	time	quantity	result
CCCCC(=O)Nc1ccc(-c2ccc3ncn(CC#N)c(=O)c3c2)cn1	HCC827	CCK-8	–	72 h	IC50	> 10 µM
CC(=NNC(=O)c1ccccc1Cl)c1ccc(Nc2nnc(-c3ccc(Cl)cc3)c3ccccc23)cc1	HepG2	MTT	2.5 µM	–	cell death	95.2%
NCC(=O)Nc1ccccc1/N=c1\cc(-c2ccc3c(c2)OCO3)oc2c([N+](=O)[O-])cccc12	NCI-H1975	CCK-8	1 µM	–	inhibition	6.59%
O=C(C=Cc1ccccc1)Nc1ccc(Oc2nnc(-c3ccc(Cl)cc3)c3ccccc23)cc1	HepG2	MTT	0.625 µM	–	cell death	21.5%
Nc1nc2ccc(-c3c/c(=N\c4ccccc4NC(=O)C4CCNC4)c4ccccc4o3)cc2o1 (centres unmarked)	NCI-H1975	CCK-8	1 µM	–	inhibition	40.1%
C#CCn1cnc2ccc(-c3ccc(NC(=O)CCCC)nc3)cc2c1=O	NCI-H1975	CCK-8	–	72 h	IC50	> 10 µM
CC[C@@H](C)Nc1ccnc(Nc2cccc(-c3cccnc3)c2)n1	BJ	ATP luminescence	–	72 h	EC50	> 6 µM
COc1ccc(NC(=O)c2c(Nc3ccccc3)sc(C#N)c2NC(=O)CNc2ccccc2)cc1	HCT-116	SRB	1 nM	48 h	viability	102%
COc1ccc2/c(=N/c3ccccc3NC(=O)N3CCOCC3)cc(-c3ccc4c(c3)OCCO4)oc2c1	NCI-H1975	CCK-8	1 µM	–	inhibition	4.59%
Cc1n[nH]c2ccc3nc(-c4ccc(C(=O)NCCN(C)C)cc4)c4c(c3c12)CCCC4	U-937	–	–	72 h	GI50	0.86 µM
Cc1cc(C)n(C(=S)[S][Au][PH](CCCCCC[PH]([Au][S]C(=S)n2nc(C)cc2C)(c2ccccc2)c2ccccc2)(c2ccccc2)c2ccccc2)n1	COLO 205	–	–	–	GI50	0.105 µM
CCCCCC(=O)Nc1ccc(-c2ccc3ncn(CCCC)c(=O)c3c2)cn1	HCC827	CCK-8	–	72 h	IC50	2.41 µM
CC(=O)Nc1ccc(Oc2nnc(-c3ccc(Cl)cc3)c3ccccc23)cc1	HepG2	MTT	0.156 µM	–	cell death	16.1%
c1cc(Nc2nccc(NC3CCCCC3)n2)cc(-c2cc[nH]n2)c1	BJ	ATP luminescence	–	72 h	EC50	> 15 µM
Cc1nc(Nc2ncc(C(=O)Nc3c(C)cccc3Cl)s2)cc(N2CC[C@H](O)C2)n1	L-82	ATP luminescence	10 µM	72 h	inhibition	17%
NCC(=O)Nc1ccccc1/N=c1\cc(-c2ccc3c(c2)OCO3)oc2c(N)cccc12	MOLM-13	CCK-8	1 µM	–	inhibition	2.36%
CCCCC(=O)Nc1ccc(-c2ccc3ncn(CCC)c(=O)c3c2)c(F)n1	NCI-H1975	CCK-8	–	72 h	IC50	0.26 µM
CN(c1cccc(-c2cccnc2)c1)c1nccc(NC2CCCCC2)n1	BJ	ATP luminescence	–	72 h	EC50	> 4 µM
CNCCC(=O)Nc1ccccc1/N=c1\cc(-c2ccc3nc(N)oc3c2)oc2ccccc12	MOLM-13	CCK-8	1 µM	–	inhibition	26.4%

SMILES	cell line	method	tested at	time	quantity	result
CCCn1cnc2ccc(-c3ccc(NC(=O)CNCC)nc3)cc2c1=O	HCC827	CCK-8	–	72 h	IC50	2.55 µM
COC(=O)c1cccc(-c2cccc(Nc3nccc(NC4CCCCC4)n3)c2)c1	BJ	ATP luminescence	–	72 h	EC50	21.5 µM
CCCCC(=O)Nc1cc(C)c(-c2ccc3ncn(CCC)c(=O)c3c2)cn1	HCC827	CCK-8	–	72 h	IC50	2.58 µM
COCC(C)Nc1ccnc(Nc2cccc(-c3cccnc3)c2)n1 (centres unmarked)	BJ	ATP luminescence	–	72 h	EC50	> 23 µM
O=C(Nc1ccccc1)Nc1ccc(Oc2nnc(-c3ccc(Cl)cc3)c3ccccc23)cc1	HepG2	MTT	78 nM	–	cell death	44.1%
C[C@H](N)C(=O)Nc1ccccc1/N=c1\cc(-c2ccc3c(c2)OCCO3)oc2c(N)cccc12	NCI-H1975	CCK-8	1 µM	–	inhibition	-4.76%
CN(C)CCN(C)C(=O)c1ccc(-c2nc3ccc4[nH]ncc4c3c3c2CCCCC3)cc1	K562	resazurin	–	72 h	GI50	8.8 µM
NCCC(=O)Nc1ccccc1/N=c1\cc(-c2ccc3nc(N)oc3c2)oc2cc(O)ccc12	NCI-H1975	CCK-8	1 µM	–	inhibition	6.23%
CCC(=CCc1c(O)cc2c(c1O)C(=O)C[C@@H](c1ccc(O)cc1)O2)CC	HeLa	MTT	0.781 µM	48 h	inhibition	-3.76%
Fc1ccc(Nc2nccc(NC3CCCCC3)n2)cc1	BJ	ATP luminescence	–	72 h	EC50	> 6 µM
CCCC(=O)Nc1ccc(-c2ccc3ncn(CCC)c(=O)c3c2)cn1	NCI-H1975	CCK-8	–	72 h	IC50	0.078 µM
CC(=NNC(N)=S)c1ccc(Nc2nnc(-c3ccc(Cl)cc3)c3ccccc23)cc1	HepG2	MTT	10 µM	–	cell death	92.7%
CCCn1cnc2ccc(-c3ccc(N4CCCC4=O)nc3)cc2c1=O	HCC827	CCK-8	–	72 h	IC50	> 10 µM
CC(=NNC(=O)c1ccc(N)cc1)c1ccc(Nc2nnc(-c3ccc(Cl)cc3)c3ccccc23)cc1	HepG2	MTT	0.625 µM	–	cell death	8.51%
c1cncc(Nc2nccc(NC3CCCCC3)n2)c1	BJ	ATP luminescence	–	72 h	EC50	> 10 µM
CC(=NNC(=O)c1ccccc1Br)c1ccc(Nc2nnc(-c3ccc(Cl)cc3)c3ccccc23)cc1	HepG2	MTT	10 µM	–	cell death	95.5%
CN(C)CCNC(=O)c1ccc(-c2nc3ccc4[nH]ncc4c3c3c2CC3)cc1	K562	resazurin	–	72 h	GI50	6.6 µM
c1ccc(-c2ccccc2Nc2nccc(NC3CCCCC3)n2)cc1	BJ	ATP luminescence	–	72 h	EC50	> 7 µM
O=C(Nc1ccc(Oc2nnc(-c3ccc(Cl)cc3)c3ccccc23)cc1)c1ccccc1	HepG2	MTT	5 µM	–	cell death	97%
